Measurements collected from several papers.
Each numbered part is a random draw from the data of one study; scales do not carry over between parts. Positions count from the first letter of the parent shown.
Chain of UniProt Q9C5W9 (whole entry, looked up): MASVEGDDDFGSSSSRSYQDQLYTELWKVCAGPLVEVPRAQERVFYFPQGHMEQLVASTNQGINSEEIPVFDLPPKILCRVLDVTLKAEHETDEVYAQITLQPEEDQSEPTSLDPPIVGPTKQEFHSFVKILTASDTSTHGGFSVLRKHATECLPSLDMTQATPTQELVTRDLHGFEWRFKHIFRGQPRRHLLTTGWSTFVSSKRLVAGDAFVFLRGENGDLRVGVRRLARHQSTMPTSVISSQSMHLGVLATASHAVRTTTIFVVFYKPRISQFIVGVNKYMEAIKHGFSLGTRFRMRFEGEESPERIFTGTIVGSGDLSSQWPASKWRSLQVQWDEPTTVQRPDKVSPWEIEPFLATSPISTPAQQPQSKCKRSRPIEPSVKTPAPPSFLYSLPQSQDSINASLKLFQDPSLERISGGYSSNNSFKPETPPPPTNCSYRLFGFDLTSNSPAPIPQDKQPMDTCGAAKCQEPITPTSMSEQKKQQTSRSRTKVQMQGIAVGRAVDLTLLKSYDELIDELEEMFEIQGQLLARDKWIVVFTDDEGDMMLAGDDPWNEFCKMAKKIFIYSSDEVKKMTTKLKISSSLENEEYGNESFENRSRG
Chain of UniProt Q9ZTX8 (whole entry, looked up): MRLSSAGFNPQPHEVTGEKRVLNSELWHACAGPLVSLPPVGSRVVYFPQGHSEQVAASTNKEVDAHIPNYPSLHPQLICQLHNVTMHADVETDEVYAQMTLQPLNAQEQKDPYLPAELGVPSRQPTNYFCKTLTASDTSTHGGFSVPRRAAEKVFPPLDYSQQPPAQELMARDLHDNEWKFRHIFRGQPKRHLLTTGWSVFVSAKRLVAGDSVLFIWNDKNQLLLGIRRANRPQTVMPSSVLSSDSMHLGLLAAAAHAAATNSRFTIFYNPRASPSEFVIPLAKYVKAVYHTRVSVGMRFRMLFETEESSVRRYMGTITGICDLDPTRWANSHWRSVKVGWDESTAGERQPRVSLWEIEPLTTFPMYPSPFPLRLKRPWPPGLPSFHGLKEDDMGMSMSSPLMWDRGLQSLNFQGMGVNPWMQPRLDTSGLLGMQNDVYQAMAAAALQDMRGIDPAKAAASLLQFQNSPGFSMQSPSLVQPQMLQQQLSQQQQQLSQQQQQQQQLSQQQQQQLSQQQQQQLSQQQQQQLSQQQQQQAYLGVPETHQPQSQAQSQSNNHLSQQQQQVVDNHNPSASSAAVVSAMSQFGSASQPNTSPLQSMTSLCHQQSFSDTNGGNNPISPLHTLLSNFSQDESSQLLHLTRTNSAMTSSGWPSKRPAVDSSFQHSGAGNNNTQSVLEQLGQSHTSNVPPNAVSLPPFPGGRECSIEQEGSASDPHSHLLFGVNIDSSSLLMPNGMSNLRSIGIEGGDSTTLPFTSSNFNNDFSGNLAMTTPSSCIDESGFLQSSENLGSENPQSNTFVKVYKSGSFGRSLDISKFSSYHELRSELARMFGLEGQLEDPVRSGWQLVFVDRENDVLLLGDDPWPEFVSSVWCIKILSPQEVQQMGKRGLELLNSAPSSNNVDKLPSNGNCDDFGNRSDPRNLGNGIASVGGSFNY
Chain of UniProt O23661 (whole entry, looked up): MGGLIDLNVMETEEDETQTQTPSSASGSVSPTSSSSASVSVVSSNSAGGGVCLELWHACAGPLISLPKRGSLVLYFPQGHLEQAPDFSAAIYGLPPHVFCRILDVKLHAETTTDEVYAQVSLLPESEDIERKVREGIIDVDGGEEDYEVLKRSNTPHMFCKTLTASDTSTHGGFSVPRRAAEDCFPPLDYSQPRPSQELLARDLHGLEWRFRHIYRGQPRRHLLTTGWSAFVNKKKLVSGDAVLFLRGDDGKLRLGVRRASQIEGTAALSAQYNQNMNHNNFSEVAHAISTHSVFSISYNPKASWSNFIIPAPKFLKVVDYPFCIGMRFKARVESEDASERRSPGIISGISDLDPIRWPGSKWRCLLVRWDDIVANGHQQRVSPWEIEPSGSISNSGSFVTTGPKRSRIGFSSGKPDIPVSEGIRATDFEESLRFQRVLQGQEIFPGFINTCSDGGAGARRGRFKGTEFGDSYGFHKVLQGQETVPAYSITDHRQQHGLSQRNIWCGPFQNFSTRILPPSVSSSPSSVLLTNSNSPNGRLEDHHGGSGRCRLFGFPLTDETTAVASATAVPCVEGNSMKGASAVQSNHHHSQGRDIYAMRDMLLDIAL
Chain of UniProt Q8RYC8 (whole entry, looked up): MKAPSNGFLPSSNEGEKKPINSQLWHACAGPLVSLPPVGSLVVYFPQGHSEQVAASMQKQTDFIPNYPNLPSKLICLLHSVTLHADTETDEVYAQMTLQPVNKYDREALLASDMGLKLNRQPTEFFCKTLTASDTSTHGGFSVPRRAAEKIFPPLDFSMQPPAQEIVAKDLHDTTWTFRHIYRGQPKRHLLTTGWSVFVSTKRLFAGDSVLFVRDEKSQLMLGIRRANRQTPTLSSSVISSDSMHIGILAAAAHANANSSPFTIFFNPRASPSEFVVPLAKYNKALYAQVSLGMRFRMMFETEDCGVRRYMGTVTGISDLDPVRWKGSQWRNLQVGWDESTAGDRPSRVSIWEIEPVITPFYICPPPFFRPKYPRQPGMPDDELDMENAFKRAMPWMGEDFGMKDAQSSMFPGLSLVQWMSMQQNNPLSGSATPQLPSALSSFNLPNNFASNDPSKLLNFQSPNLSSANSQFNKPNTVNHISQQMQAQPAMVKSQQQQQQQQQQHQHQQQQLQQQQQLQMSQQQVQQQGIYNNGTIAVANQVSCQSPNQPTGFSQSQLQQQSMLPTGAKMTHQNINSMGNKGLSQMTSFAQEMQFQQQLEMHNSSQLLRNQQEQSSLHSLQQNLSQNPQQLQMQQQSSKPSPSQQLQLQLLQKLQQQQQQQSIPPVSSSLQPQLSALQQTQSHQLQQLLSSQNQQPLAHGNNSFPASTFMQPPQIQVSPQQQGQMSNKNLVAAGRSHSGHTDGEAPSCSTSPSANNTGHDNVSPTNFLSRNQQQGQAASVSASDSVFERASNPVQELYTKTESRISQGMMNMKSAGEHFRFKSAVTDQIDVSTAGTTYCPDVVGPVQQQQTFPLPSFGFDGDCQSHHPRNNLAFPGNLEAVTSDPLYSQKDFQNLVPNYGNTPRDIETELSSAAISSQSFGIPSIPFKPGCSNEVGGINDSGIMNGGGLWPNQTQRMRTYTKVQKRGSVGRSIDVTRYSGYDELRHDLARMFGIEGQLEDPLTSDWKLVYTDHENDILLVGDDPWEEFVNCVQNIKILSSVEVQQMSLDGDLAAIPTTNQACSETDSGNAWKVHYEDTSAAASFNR
Chain of UniProt Q8H174 (whole entry, looked up): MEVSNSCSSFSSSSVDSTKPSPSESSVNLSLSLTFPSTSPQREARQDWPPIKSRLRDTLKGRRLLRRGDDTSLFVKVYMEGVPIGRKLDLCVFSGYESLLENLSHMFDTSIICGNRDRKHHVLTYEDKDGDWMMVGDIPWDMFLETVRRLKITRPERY
Chain of UniProt Q9FGV1 (whole entry, looked up): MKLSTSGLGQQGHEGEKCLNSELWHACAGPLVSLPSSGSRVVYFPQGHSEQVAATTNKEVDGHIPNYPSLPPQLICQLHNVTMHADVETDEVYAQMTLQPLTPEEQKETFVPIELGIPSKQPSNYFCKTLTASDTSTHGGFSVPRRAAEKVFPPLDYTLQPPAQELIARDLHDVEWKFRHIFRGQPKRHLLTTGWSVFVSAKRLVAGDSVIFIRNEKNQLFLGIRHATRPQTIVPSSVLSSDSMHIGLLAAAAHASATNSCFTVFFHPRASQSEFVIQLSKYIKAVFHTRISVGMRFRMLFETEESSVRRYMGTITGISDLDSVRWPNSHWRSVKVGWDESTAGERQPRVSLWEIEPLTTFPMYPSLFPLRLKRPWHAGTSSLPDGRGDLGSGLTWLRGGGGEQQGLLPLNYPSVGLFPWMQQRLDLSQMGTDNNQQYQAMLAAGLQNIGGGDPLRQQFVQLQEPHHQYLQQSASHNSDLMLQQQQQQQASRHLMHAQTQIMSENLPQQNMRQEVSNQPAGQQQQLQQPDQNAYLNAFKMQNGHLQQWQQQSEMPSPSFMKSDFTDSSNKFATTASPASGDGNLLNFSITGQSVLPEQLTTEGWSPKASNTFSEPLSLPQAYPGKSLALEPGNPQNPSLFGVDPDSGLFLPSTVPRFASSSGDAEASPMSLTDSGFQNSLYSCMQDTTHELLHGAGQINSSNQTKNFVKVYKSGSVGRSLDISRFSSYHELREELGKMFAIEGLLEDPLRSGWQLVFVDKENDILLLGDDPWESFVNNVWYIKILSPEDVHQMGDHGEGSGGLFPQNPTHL

Set 1 — target: CCND2, cyclin fold, Cln2 fusion (human); method: yeast growth competition, sequencing; medium: yeast; notes: weak parent motif; relative to: not given; reading: higher = stronger binding
Parent: KIF20B docking peptide (human); KRAKRKLYTSEIS; partner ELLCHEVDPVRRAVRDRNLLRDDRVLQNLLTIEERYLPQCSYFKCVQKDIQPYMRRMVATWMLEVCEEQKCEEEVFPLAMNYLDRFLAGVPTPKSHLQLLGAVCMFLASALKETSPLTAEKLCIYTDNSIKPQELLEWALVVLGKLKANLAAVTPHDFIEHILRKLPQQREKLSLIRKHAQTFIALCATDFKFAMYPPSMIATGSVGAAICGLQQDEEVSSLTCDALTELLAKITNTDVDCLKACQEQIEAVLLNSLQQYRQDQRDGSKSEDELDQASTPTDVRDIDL
| Change | normalised enrichment score |
| --- | --- |
| E11A | -0.00793 |
| K4A | 0.113 |
| S13A | -0.452 |
| I12A | 0.0915 |
| R2A | -0.228 |
| K1A | 0.467 |

Set 2 — method: EMSA with sequencing; form: double-stranded DNA, one strand shown; medium: in vitro; concentration: 10 and 20 nM; relative to: negative control set to 0; reading: higher = stronger binding
Target: Hepatocyte nuclear factor 3-alpha (Foxa1, Mus musculus, UniProt P35582, residues 1-468, full length assumed)
Notes: whole designed probe, mean of two concentrations, ends assumed
Constant ends, left off below: GTGAGCGGTGCCCATTGATGGGGAAC … TTTCACTGGGATCGTGGGGAC
Construct (chain): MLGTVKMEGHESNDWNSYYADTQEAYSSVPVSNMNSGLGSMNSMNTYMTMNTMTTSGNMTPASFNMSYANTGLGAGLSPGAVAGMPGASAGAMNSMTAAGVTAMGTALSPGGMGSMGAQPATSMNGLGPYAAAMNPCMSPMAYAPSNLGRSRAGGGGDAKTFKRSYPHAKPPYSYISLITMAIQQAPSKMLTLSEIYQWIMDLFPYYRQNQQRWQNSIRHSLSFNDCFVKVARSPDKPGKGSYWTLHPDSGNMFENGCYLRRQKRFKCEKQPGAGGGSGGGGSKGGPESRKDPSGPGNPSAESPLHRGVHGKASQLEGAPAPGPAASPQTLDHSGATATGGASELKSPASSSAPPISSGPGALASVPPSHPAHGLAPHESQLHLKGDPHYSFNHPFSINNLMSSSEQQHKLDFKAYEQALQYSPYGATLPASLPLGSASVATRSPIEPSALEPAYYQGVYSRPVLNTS
| Sequence | normalised bound fraction [ratio] |
| --- | --- |
| GAAGGAAATAATGGAGCCAACCATGCATATAACCTCAGGGAGAACATTCTAGGTAGAGGGAACAGCAAGTGCAAAGGCCCTGAAGTGGGGGTTTGTTTACCTTCTGCACACAGGCCGTTGCACAATAGTACAATTGGAATGGATGGGAAATGTAAAAGAGAGAAGTTGAAAAGGCCAGGTGCAGTGGCTCATG | 0.421 |
| TCCATGTAATGAAAGGTGATGAATTTAGCTTGCTTTCTCTGCTTCCTTCTTTCAGTCCCTGCCAGTCACATATTTATTTACTTCTTCTTCTATAAATTACTTTTAGAAATTTAAATAATATATTTCAACATCTATTTCCTGACTTCTTGTTGGATCATTGCCTGTACAAAAATGATTTTGTTTTATTCTCATA | 0.238 |
| CAGAGAGTGTTTGCAGTTGTTCATCCTAAATTACACTGTTGTTTTAGCCTGTTGTGTGCTCAGAGCTGATTAATAAACAGAAATTAAGTCACTTATTTACTTTTTGCTTCAAATCACAGTGTGCGACTCGAGTGGTTGATATCTCACTGATATTTGTGAATGCGTGGATGAGTGACTGGATCTGCTTGTGTGT | 0.386 |
| GGGACTGTTTACTCTCTGTACAGAGTAAGCCCCAGGGACTTTTCTGGTTGCAAAAGTAATCCTGGTACTTTCTGGATTTTCACTAGATTAAAGTAAACAAGAACAATATAACAGGCAAACTCCTTAAGTTAGACATCACTTACACATATCATAAGAGGAAAATAATTTATAAATGTTCCCAAATTTTCCTCCA | 0.461 |
| ATCTTCCCCCTCTTCCTTGCCCCACCAGCTCACCTTCCCGGGTTATTTGCAGATAGGAAAATAAATAAAGCCGGCATTCGTTAACCCTCTTCTGGCGCAAACTGCTGTTTGCTCTGGTCCTTTGGCGACGCCAGGCTCCGGATGAATCATGGGAGAGCAAAGCACCGTGTCAGGGCCATGATCCGGGGTGGCC | 0.403 |

Set 3 — Molecule: B1 (IAA20); method: two-hybrid; notes: weak activation fusion; reading: higher = firmer interaction
B1: IAA20 (Arabidopsis thaliana, UniProt O24410); chain MGRGRSSSSSSIESSSKSNPFGASSSTRNLSTDLRLGLSFGTSSGTQYFNGGYGYSVAAPAVEDAEYVAAVEEEEENECNSVGSFYVKVNMEGVPIGRKIDLMSLNGYRDLIRTLDFMFNASILWAEEEDMCNEKSHVLTYADKEGDWMMVGDVPWEMFLSTVRRLKISRANYHY
| partner | how to read | positive tests |
| --- | --- | --- |
| ARF18 482-602 (Arabidopsis thaliana, UniProt Q9C5W9) | relative to: out of 4 tests | 0 |
| ARF19 948-1086 (Arabidopsis thaliana, UniProt Q8RYC8) | relative to: out of 4 tests | 2 |
| ARF8 699-811 (Arabidopsis thaliana, UniProt Q9FGV1) | relative to: out of 4 tests | 2 |
| ETT (Arabidopsis thaliana, UniProt O23661) | relative to: out of 4 tests | 1 |
| ARF6 790-935 (Arabidopsis thaliana, UniProt Q9ZTX8) | relative to: out of 4 tests | 3 |
| IAA31 (Arabidopsis thaliana, UniProt Q8H174) | relative to: out of 2 tests | 0 |

Set 4 — method: RNA Bind-n-Seq; form: RNA; medium: in vitro; concentration: 365 nM; relative to: no-protein control; reading: higher = stronger binding
Target: RNA binding protein fox-1 homolog 2, RRM domain, GST-SBP tag (RBFOX2, Homo sapiens, UniProt O43251-10, residues 100-194)
Notes: natural RNA segment, single round, ends assumed
Constant ends, left off below: GGGAGUUCUACAGUCCGACGAUC … UGGAAUUCUCGGGUGCCAA
Construct (chain): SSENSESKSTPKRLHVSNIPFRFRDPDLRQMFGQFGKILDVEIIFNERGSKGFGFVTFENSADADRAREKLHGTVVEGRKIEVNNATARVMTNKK
| Sequence | RBNS enrichment (R) |
| --- | --- |
| GAAAAUCUGCUCUGUGGAAAGAAAGAACUGUCUCUACCAGGGUCAAGAGCAUGAACGCAUCAAUAGAAAGAACUCGGGGAAACAUCCCAUCAACAGGACUACACACUUGU | 13.2 |
| UCCCUUUUAAUCCAGAAAACAGCCUUUGAUUAGGUAUUGUUGUCUCCAUUUUAUAGAUGAGGAAACUGAGGCAGUAUGACUGAGGCCGAGAGCAGUGGUUAAGACAGACU | 0.465 |
| UGUUUUUUUGUUUGUGAACUAGCUGUAUCCGCUUAGAAUGGUAACACAGAUGGUCGCUGCAAGCAGAUCCCUCUGAGCCUCUCUUCUGCUAGUGCCUGGCUUGCCACAUG | 0.409 |
| UGACUUACUCACCCUUGUACAGUGUUUGCAUAGCAGAGUGAAGGUUACUUAUUACCCUCUUUCUCUCAAGUGCUUUAAAGAAGAAACCUCCCUGGUGUUUCUUUUCUUUU | 0.41 |
| AUCUAUCAAUUGUGAAUCUGGCUGCUGGUGUAUAAAAACCUGGAUGUAAAGCUGAGCCUACAGACCUGUCCUCACCAACUGUUUUGUGAUUUCUACUCAACUACAAAGAU | 0.356 |
| AGAUGCGAUUGGGCGGUACCACCAGUGUGCAACCAUCCAGCUGGAUUUCCAGUUGCCCAUCAGAUUUAAUCUUACUUAUGUAAGGCAUGAUGGUGAUGAUAAGAAAAGGC | 0.174 |
| AUAAUAGGUUUAUUAACUGAAUUUCAUUAGUUUUUUAAAAGUGUUUUUGGUUUGUGUAUAUAUACAUAUACAAAUACAACAUUUACAAUAAAUAAAAUACUUGAAAUUCU | 0.615 |
| AAAGGGAAACUAAAUUGUUCCCUGGAUUCCAGGAGAUGGUCGGCACAGAUGGUCGUCACGUGGGACCUGGAAUUGGAGACACUGCAGCGAGCAGCUAGAAAGCCUCUUGU | 0.295 |

For quick reference, copied from above (set 2):
| Sequence | normalised bound fraction [ratio] |
| --- | --- |
| GAAGGAAATAATGGAGCCAACCATGCATATAACCTCAGGGAGAACATTCTAGGTAGAGGGAACAGCAAGTGCAAAGGCCCTGAAGTGGGGGTTTGTTTACCTTCTGCACACAGGCCGTTGCACAATAGTACAATTGGAATGGATGGGAAATGTAAAAGAGAGAAGTTGAAAAGGCCAGGTGCAGTGGCTCATG | 0.421 |
| CAGAGAGTGTTTGCAGTTGTTCATCCTAAATTACACTGTTGTTTTAGCCTGTTGTGTGCTCAGAGCTGATTAATAAACAGAAATTAAGTCACTTATTTACTTTTTGCTTCAAATCACAGTGTGCGACTCGAGTGGTTGATATCTCACTGATATTTGTGAATGCGTGGATGAGTGACTGGATCTGCTTGTGTGT | 0.386 |
